Assay results pooled from the literature.
Parts stem from different laboratories: compare values within a part only.

Block 1 — method: protein-binding microarray; form: double-stranded DNA, one strand shown; matrix: in vitro; concentration: 250 nM; notes: 60-bp whole probe; added: salmon DNA 0.4 mg/ml; baseline: random background probes; reading: higher = stronger binding; quantity: log fluorescence; shared flanks, not repeated: GCCTAGCAC … GTCTTGATTCGCTTGACGCTGCTG
Target: Interferon regulatory factor 5, full length, phosphomimetic (IRF5, Homo sapiens, UniProt Q13568-2, residues 1-514, K96S/S451D/S453D/S456D/S462D)
Sequence = GACGGTTTAGGTTTCGGGACGTGCTAG; value = 4.08 z-score
Sequence = CTAGGTATCGGTTTCGGTTAGTGCTAG; value = 11 z-score
Sequence = TTAGGTTTCCTTATCCTTGAGTGCTAG; value = 0.828 z-score
Sequence = GACGGACTGGGTCTCGGCACGTGCTAG; value = -0.683 z-score
Sequence = GACTGACTGGGTATCGGGACGTGCTAG; value = 0.479 z-score
Sequence = TCATGTTTTTCATTATTACTGTGCTAG; value = 1.86 z-score
Sequence = AACGGTTTCCTTATCCTGACGTGCTAG; value = 0.991 z-score
Sequence = TCAATTCTCAGCCCTGCGACTGTGCTA; value = 0.0182 z-score
Sequence = TCACTTCTCCCTTTCAGTTTGTGCTAG; value = 1.95 z-score
Sequence = ATAGGTTTCGGTTCCGGTTAGTGCTAG; value = 10.4 z-score
Sequence = TTAGGGTTCGACACTGGGTTAGTGCTA; value = 0.0797 z-score

Block 2 — method: Sort-seq; measured: YFP reporter; matrix: E. coli; notes: PhoQ-PhoP variant library; added: 10 µM Mg2+; baseline: high Mg2+ state; reading: higher = stronger signaling; quantity: fold induction
Substance: PhoQ, residues 284 288 289 292 302 303 NLMGRA
target = PhoP, residues 12 14 15 18 19 LHTVL (Escherichia coli, UniProt P23836); value = 56.1
target = PhoP, residues 12 14 15 18 19 NQCAL (Escherichia coli, UniProt P23836); value = 15.7
target = PhoP, residues 12 14 15 18 19 TQAML (Escherichia coli, UniProt P23836); value = 21.1

Block 3 — method: universal PBM; form: double-stranded DNA, one strand shown; matrix: in vitro; concentration: 600 nM; reading: higher = stronger binding; quantity: E-score
Target: Sal-like protein 4, full length isoform A (SALL4, Homo sapiens, UniProt Q9UJQ4, residues 1-1053)
UniProt Q9UJQ4, sequence (whole entry, looked up): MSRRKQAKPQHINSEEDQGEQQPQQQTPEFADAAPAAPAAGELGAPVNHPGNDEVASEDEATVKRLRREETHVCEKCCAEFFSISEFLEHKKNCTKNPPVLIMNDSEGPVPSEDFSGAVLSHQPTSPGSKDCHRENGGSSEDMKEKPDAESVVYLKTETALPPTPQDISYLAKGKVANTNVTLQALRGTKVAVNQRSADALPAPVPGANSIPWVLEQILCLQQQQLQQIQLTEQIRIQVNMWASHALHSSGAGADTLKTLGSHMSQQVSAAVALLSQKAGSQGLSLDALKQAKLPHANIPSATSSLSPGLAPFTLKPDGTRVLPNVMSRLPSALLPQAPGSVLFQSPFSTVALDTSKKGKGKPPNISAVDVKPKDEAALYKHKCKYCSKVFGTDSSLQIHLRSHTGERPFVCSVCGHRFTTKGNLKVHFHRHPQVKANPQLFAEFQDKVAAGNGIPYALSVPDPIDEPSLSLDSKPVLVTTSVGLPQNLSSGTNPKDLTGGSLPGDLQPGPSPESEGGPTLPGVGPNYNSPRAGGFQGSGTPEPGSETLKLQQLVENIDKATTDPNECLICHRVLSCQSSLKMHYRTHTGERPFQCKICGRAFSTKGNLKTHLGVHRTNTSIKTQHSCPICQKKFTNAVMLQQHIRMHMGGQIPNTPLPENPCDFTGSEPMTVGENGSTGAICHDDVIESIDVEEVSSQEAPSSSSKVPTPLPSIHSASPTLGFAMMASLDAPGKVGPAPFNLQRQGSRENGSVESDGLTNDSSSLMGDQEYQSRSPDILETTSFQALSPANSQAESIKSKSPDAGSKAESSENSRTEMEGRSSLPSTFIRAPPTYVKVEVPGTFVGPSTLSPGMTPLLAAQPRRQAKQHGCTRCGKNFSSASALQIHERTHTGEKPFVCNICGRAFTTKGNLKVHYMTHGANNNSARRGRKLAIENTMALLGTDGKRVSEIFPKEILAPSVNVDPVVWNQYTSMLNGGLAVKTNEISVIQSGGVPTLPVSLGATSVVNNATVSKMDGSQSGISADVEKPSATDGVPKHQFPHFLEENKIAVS
Notes: 8-mer, flanks averaged, mean of replicates
Sequence = AAGTGAAA; value = 0.205
Sequence = AACAAAAT; value = 0.278
Sequence = ACGCCAAT; value = 0.0729
Sequence = ACAGAAAC; value = 0.0644
Sequence = AGTTAAGC; value = 0.0683
Sequence = CTAAGATC; value = -0.0224
Sequence = GTCGCACA; value = -0.126
Sequence = AACCTACT; value = -0.0138
Sequence = CATCGGAG; value = -0.128
Sequence = AGCCCCCT; value = -0.333
Sequence = CCTTCGTA; value = -0.148
Sequence = GCAACCAC; value = -0.176
Sequence = ACTCAACG; value = -0.0411

Block 4 — method: protein binding microarray; form: double-stranded DNA, one strand shown; matrix: in vitro; concentration: not given; baseline: not given; reading: higher = stronger binding; quantity: E-score
Target: Histone acetyltransferase KAT6A, both winged helices, GST fusion (KAT6A, Homo sapiens, UniProt Q92794, residues 1-181)
Notes: 8-mer, flanks averaged, mean of 2 arrays, mostly near background
Construct (chain): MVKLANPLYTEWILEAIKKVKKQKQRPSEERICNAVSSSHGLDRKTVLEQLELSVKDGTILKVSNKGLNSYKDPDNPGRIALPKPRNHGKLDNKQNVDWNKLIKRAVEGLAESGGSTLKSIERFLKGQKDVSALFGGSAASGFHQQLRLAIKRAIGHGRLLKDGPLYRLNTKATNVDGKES
Sequence = CCCCCACG; value = -0.00518
Sequence = AGGCCTTC; value = -0.169
Sequence = ACGCGTGC; value = 0.291
Sequence = CGATGGTA; value = 0.0627
Sequence = ACTCGGCT; value = 0.0383
Sequence = ATCCGAGG; value = -0.056
Sequence = TCCTCACA; value = -0.0725
Sequence = CAGAATGG; value = -0.201

Repeated from above (block 1):
Sequence = TCAATTCTCAGCCCTGCGACTGTGCTA; value = 0.0182 z-score
Sequence = GACTGACTGGGTATCGGGACGTGCTAG; value = 0.479 z-score
Sequence = GACGGTTTAGGTTTCGGGACGTGCTAG; value = 4.08 z-score
Sequence = AACGGTTTCCTTATCCTGACGTGCTAG; value = 0.991 z-score
Sequence = ATAGGTTTCGGTTCCGGTTAGTGCTAG; value = 10.4 z-score
Sequence = TTAGGTTTCCTTATCCTTGAGTGCTAG; value = 0.828 z-score
